Experimental data pooled from the literature.
Every numbered part comes from another study and shows a few of its results, in no order.
Sequence of UniProt Q12851 (whole entry, looked up): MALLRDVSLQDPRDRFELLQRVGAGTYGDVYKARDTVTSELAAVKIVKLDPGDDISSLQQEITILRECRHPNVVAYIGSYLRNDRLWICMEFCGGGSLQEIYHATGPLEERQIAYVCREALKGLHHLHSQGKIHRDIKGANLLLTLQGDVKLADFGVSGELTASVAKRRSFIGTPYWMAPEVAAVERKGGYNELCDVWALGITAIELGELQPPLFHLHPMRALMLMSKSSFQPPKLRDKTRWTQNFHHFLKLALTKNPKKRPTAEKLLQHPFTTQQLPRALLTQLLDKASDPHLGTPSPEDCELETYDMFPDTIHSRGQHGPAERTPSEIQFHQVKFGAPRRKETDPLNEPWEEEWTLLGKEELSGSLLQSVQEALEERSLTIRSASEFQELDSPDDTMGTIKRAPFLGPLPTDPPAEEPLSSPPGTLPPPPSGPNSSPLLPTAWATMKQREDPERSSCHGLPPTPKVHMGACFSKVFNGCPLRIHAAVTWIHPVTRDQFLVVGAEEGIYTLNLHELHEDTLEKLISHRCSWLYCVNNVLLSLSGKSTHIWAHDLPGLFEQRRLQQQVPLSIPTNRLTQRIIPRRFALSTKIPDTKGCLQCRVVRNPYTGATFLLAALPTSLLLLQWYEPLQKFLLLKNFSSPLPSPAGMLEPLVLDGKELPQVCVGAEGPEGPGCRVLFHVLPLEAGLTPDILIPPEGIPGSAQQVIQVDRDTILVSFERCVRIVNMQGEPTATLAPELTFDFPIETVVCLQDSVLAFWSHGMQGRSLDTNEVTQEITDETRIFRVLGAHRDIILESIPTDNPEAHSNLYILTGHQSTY
Sequence of UniProt P29322 (whole entry, looked up): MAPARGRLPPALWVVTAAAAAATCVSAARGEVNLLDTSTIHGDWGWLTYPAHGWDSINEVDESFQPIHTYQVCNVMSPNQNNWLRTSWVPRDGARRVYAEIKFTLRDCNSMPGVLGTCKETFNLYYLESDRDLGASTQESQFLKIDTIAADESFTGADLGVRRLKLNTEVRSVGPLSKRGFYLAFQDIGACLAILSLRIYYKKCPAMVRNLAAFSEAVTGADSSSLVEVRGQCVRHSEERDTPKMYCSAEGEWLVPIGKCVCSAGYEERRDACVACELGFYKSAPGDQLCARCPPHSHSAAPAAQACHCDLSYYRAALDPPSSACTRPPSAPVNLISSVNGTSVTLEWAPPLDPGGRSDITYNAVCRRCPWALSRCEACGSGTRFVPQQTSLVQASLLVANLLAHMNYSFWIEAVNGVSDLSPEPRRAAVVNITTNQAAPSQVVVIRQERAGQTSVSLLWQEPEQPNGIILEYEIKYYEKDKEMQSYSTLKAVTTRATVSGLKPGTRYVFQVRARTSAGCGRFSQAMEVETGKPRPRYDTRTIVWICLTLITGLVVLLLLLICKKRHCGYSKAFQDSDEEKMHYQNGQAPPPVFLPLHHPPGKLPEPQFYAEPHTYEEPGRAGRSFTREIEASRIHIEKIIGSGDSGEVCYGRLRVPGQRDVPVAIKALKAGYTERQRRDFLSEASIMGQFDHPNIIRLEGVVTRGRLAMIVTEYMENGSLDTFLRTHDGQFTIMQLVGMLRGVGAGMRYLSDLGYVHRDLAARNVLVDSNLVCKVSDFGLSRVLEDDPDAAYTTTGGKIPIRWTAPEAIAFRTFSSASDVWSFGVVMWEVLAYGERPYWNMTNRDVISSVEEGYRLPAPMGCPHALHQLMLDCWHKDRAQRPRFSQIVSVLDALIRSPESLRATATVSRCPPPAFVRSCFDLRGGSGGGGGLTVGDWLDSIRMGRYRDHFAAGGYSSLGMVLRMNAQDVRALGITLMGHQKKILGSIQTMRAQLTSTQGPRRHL
Sequence of UniProt Q9NRP7 (whole entry, looked up): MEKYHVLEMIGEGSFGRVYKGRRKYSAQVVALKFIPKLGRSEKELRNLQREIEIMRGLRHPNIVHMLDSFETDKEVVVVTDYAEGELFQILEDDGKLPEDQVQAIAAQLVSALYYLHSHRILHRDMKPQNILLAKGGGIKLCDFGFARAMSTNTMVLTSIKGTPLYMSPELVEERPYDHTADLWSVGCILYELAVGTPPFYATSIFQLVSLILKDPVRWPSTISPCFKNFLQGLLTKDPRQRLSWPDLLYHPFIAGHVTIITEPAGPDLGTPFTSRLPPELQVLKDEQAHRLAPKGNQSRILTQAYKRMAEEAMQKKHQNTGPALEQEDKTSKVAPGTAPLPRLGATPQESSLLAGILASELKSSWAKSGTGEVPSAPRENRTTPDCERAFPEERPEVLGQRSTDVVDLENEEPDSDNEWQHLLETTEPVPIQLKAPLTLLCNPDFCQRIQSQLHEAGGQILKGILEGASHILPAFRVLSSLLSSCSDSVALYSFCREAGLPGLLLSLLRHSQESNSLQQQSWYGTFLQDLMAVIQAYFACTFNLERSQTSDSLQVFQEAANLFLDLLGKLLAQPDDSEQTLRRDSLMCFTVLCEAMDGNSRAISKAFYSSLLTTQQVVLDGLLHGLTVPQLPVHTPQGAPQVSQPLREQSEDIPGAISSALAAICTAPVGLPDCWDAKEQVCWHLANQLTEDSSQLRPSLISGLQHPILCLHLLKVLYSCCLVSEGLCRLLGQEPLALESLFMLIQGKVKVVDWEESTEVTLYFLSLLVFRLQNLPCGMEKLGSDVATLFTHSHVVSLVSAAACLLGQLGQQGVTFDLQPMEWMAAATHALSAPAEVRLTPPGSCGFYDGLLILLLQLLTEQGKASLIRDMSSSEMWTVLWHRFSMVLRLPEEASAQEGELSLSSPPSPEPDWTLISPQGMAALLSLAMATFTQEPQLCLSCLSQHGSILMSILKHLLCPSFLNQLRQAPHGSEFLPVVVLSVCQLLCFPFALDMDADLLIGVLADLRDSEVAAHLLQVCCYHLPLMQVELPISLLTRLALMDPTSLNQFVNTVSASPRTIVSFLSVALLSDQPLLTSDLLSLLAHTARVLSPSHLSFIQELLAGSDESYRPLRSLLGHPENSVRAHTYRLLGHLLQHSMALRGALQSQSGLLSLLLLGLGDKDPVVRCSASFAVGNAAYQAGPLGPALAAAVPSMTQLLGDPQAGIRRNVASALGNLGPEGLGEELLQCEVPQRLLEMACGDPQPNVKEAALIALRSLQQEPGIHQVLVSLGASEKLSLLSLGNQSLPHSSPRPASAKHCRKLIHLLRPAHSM

Series 1 — tested at: 1 µM
SMILES: Cc1c(NC(=O)c2cc(C(N)=O)nc3cc(F)ccc23)c(C(F)(F)F)nn1Cc1ccc(C(C)(C)C)cc1
| target | assay | remaining binding |
| --- | --- | --- |
| MAP4K2 (Homo sapiens, UniProt Q12851) | cell-free assay, competition with immobilised ligand | 100% |
| CSNK1A1L (Homo sapiens, UniProt Q8N752) | cell-free assay, competition with immobilised ligand | 93% |
| CDK19 (Homo sapiens, UniProt Q9BWU1) | competition binding | 100% |
| CDK11A (Homo sapiens, UniProt Q9UQ88) | cell-free assay, competition with immobilised ligand | 94% |
| CDK13 (Homo sapiens, UniProt Q14004) | cell-free assay, competition with immobilised ligand | 100% |
| EGFR (Homo sapiens, UniProt P00533, L858R) | cell-free assay, competition with immobilised ligand | 100% |
| LIM domain kinase 2 (LIMK2, Homo sapiens, UniProt P53671) | cell-free assay, competition with immobilised ligand | 84% |
| STK36 (Homo sapiens, UniProt Q9NRP7) | cell-free assay, competition with immobilised ligand | 97% |
| TTK (Homo sapiens, UniProt P33981) | cell-free assay, competition with immobilised ligand | 79% |
| PRKD3 (Homo sapiens, UniProt O94806) | cell-free assay, competition with immobilised ligand | 100% |
| ACVR1B (Homo sapiens, UniProt P36896) | cell-free assay, competition with immobilised ligand | 80% |
| FGFR1 (Homo sapiens, UniProt P11362) | cell-free assay, competition with immobilised ligand | 93% |
| MAP2K1 (Homo sapiens, UniProt Q02750) | cell-free assay, competition with immobilised ligand | 91% |
| EPHA8 (Homo sapiens, UniProt P29322) | cell-free assay, competition with immobilised ligand | 100% |
| WNK3 (Homo sapiens, UniProt Q9BYP7) | cell-free assay, competition with immobilised ligand | 97% |

Series 2 — observed: enzyme activity; mode: inhibitor; tested at: 0.5 µM; baseline: control
Target: Rho-associated protein kinase 2 (ROCK2, Homo sapiens, UniProt O75116)
Sequence of UniProt O75116 (whole entry, looked up): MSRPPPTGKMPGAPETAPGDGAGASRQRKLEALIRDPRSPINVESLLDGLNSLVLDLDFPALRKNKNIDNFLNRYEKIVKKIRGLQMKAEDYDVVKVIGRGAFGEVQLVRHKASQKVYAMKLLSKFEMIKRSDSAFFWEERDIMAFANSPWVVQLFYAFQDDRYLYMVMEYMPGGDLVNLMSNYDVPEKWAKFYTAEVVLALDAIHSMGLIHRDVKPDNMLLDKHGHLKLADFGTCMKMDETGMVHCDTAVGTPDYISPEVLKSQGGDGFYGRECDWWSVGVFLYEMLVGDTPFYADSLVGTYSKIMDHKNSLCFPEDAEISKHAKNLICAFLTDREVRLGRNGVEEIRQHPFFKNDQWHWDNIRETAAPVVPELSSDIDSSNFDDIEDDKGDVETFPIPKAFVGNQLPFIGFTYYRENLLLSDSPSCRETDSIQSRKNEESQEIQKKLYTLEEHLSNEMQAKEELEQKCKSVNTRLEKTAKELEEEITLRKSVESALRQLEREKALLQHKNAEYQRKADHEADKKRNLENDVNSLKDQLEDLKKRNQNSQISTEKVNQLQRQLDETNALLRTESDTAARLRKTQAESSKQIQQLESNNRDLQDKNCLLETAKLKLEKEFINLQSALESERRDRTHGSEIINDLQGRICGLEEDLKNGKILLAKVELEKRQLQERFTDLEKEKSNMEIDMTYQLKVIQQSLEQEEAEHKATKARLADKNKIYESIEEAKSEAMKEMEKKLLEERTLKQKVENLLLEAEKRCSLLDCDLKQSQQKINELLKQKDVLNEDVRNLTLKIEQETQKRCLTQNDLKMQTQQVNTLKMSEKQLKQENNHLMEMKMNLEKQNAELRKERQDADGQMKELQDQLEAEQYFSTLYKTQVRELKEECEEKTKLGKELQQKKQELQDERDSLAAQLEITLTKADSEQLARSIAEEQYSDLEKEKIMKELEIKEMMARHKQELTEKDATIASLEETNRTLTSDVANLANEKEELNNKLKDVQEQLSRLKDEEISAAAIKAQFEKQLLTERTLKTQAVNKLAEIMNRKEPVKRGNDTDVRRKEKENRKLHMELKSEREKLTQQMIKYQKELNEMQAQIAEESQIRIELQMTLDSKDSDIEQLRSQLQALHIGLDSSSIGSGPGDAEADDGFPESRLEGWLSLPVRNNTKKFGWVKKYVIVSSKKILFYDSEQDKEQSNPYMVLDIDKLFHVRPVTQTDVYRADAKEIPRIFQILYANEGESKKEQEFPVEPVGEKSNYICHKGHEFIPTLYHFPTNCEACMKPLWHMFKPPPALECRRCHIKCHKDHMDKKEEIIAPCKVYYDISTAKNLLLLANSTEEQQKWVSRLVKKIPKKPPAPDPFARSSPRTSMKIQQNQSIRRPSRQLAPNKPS
| SMILES | remaining activity [%] |
| --- | --- |
| COc1ccc2c(c1)c(C1=C(c3c[nH]c4ccccc34)C(=O)NC1=O)cn2CCCN(C)C | 89.2 |
| O=C1NC(=O)/C(=C/c2ccc3c(c2)OC(F)(F)O3)S1 | 92.4 |
| O=C(O)/C=C/c1cc(Br)c(Br)c(Br)c1Br | 94.2 |
| NC(=O)c1cccc(-c2cc(Nc3ccc(OC(F)(F)F)cc3)ncn2)c1 | 98.5 |
| O=Nc1c(-c2c(O)[nH]c3cc(Br)ccc23)[nH]c2ccccc12 | 92.1 |
| O=C1NC(=O)c2c1c1c3ccccc3[nH]c1n1cncc21 | 93.2 |
| COc1ccc(COc2ccc(Cc3cnc(N)nc3N)cc2OC)cc1 | 84.1 |
| COc1cc2c(Nc3ccc(Br)cc3F)ncnc2cc1OCC1CCN(C)CC1 | 90.7 |
| Cc1ccc(S(=O)(=O)/C=C/C#N)cc1 | 99.1 |
| CN(C)S(=O)(=O)c1ccc2c(c1)/C(=C/c1cc3c([nH]1)CCCC3)C(=O)N2 | 88.2 |
| O=C(c1ccccc1)c1ccc(N2CCOCC2)cc1O | 96 |
| O=C1Nc2ccc(Br)cc2/C1=C/c1cc2c([nH]1)CCCC2 | 92.8 |
| c1cc(-c2cnn3cc(-c4ccc(OCCN5CCCCC5)cc4)cnc23)ccn1 | 100 |
| Clc1ccc(Nc2nnc(Cc3ccncc3)c3ccccc23)cc1 | 95.4 |
| Nc1nc(Nc2ccc(S(N)(=O)=O)cc2)nn1C(=S)Nc1c(F)cccc1F | 6.22 |
| CCN(CC)CCCCN1c2ccccc2Oc2ccc(Cl)cc21 | 104 |

Series 3 — cell line: HaCaT; tested at: 100 µM; time: 36 h
| Compound | viability [%] |
| --- | --- |
| CC(C(=O)O)c1ccc(CC2CCCC2=O)cc1 (stereo not drawn) | 90 |
| COc1cc2c(cc1O)CC[C@@H]1[C@@H]2CC[C@]2(C)[C@@H](O)CC[C@@H]12 | 64.5 |
| O=C(NCCN1CCOCC1)c1ccc(Cl)cc1 | 100 |

Further values, each from its own experiment — technique: nitrocellulose filter binding; form: RNA; medium: in vitro; tested at: 100 nM; baseline: round 9 selected pool; reading: higher = stronger binding
Target: SMN1, full length (human, UniProt Q16637, residues 1-294)
Sequence of UniProt Q16637 (whole entry, looked up): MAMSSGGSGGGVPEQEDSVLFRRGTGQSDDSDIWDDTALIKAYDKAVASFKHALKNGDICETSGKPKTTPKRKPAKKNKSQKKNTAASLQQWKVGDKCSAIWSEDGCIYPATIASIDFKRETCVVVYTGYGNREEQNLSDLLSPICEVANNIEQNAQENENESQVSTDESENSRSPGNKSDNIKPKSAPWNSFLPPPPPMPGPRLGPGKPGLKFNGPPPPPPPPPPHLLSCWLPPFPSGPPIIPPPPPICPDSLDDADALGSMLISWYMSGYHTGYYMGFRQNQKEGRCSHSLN
Notes: whole RNA, constant flanks, single concentration, ends assumed
| Sequence | relative RNA binding |
| --- | --- |
| GGGCUCACCACGCACGUGGGCGUGGCUUUUAUUUCGGUGACCUCACCACGGCAAGCU | 7.5 % of pool |
| GGGCUCACCACGCACGUGCAACUUGCAUCUCUCCUUCCUACCUCACCACGGCAAGCU | 23 % of pool |

Excerpt of the above (series 2):
| SMILES | remaining activity [%] |
| --- | --- |
| COc1ccc(COc2ccc(Cc3cnc(N)nc3N)cc2OC)cc1 | 84.1 |
| COc1cc2c(Nc3ccc(Br)cc3F)ncnc2cc1OCC1CCN(C)CC1 | 90.7 |
| Cc1ccc(S(=O)(=O)/C=C/C#N)cc1 | 99.1 |
| CN(C)S(=O)(=O)c1ccc2c(c1)/C(=C/c1cc3c([nH]1)CCCC3)C(=O)N2 | 88.2 |
| O=C(c1ccccc1)c1ccc(N2CCOCC2)cc1O | 96 |
